Measured values pooled from the literature.
Compare with care: the assays were run in different laboratories.

SMILES | organism | test | test system | setting | MIC
CC1(C)[C@H](NC(=O)/C(=N\OC2(C(=O)O)CCCCC2)c2csc(N)n2)C(=O)N1OS(=O)(=O)O | Enterobacter cloacae | agar dilution | ATCC 43560, susceptible |  | 1 µg/mL
C=C(NC(=O)c1csc(-c2nc3c(cc2O)-c2nc(cs2)C(=O)NC(C(C)O)C(=O)NC(=C(C)OC)c2nc(cs2)C(=O)NC2c4nc(cs4)C(=O)NC(COC(=O)c4c5c6c(cccc6n4O)COC(=O)C(OC4CC(C)(O)C(N(C)C)C(C)O4)C2OC5)c2nc-3cs2)n1)C(N)=O (stereo not drawn) | Enterococcus faecium |  | -9, vancomycin-intermediate |  | 0.0078 µg/mL
COCOC[C@H]1O[C@H](O[C@H]2[C@H](O[C@@H]3O[C@H](CO)[C@@H](O[C@H]4O[C@@H](CN)[C@@H](O)[C@H](O)[C@H]4N)[C@H]3O)[C@@H](O)[C@H](N)C[C@@H]2N)[C@H](N)[C@@H](O)[C@@H]1O | Mycolicibacterium smegmatis | microbial growth, broth dilution |  | 72 h | 128 µg/mL
CC(=O)NC[C@H]1CN(c2ccc(N3CCN(C(=O)CN)CC3)c(F)c2)C(=O)O1 | Enterobacter cloacae |  | clinical isolate |  | > 128 µM
COc1cc(C(=O)O)ccc1NC(=O)c1ccc(NC(=O)c2ccc(NC(=O)[C@H](Cc3c[nH]nn3)NC(=O)c3ccc(NC(=O)/C(C)=C/c4ccc(O)cc4)cc3)cc2)cc1O | Enterococcus faecium | broth microdilution | ciprofloxacin-resistant |  | 32 µg/mL
C#CCO/N=C(\C(=O)N[C@@H]1C(=O)N(OS(=O)(=O)O)C1(C)C)c1nsc(N)n1 | Enterobacter cloacae | agar dilution | ATCC 43560, susceptible |  | 4 µg/mL
COc1c(NC(=O)c2ccc(NC(=O)[C@H](Cc3c[nH]nn3)NC(=O)c3ccc(NC(=O)/C(C)=C/c4ccc(O)cc4)cc3)cc2)ccc(C(=O)Nc2ccc(C(=O)O)c(O)c2)c1O | Enterococcus faecium | broth microdilution | ciprofloxacin-resistant |  | 16 µg/mL
CC[C@H](C)[C@@H]1NC(=O)[C@@H]([C@@H](C)O)NC(=O)CNC(=O)[C@H](CC(=O)O)NC(=O)CNC(=O)[C@H](CC(=O)O)NC(=O)CNC(=O)[C@H]2CCCCN2C(=O)[C@@H](NC(=O)[C@H](CC(=O)O)NC(=O)/C=C/CCCCCCCCCC(C)C)CNC(=O)[C@@H]2CCCN2C1=O | Enterococcus | broth microdilution | VRE 155, Mueller-Hinton broth, Mg2+ 10 mg/L | 16 h, with: Ca2+ 1.0 mM | 8 µg/mL
CC1(C)C(NC(=O)C(=NOC2(C(=O)O)CCC2)c2csc(N)n2)C(=O)N1OS(=O)(=O)O (stereo not drawn) | Enterobacter cloacae | agar dilution | CDC 1000654 |  | 2 µg/mL
C=CCO[C@H]1[C@H](O)[C@@H](N)[C@@H](O[C@H]2[C@H](O[C@@H]3O[C@H](CO)[C@@H](O[C@H]4O[C@@H](CN)[C@@H](O)[C@H](O)[C@H]4N)[C@H]3O)[C@@H](O)[C@H](N)C[C@@H]2N)O[C@@H]1CO | Mycolicibacterium smegmatis | microbial growth, broth dilution |  | 72 h | 16 µg/mL
CCCCCCCCCCCCCCCCCCn1cc(CN(CCC(=O)NCCN(CCC(=O)NCCN(CCC(=O)NCCN(C)C)CCC(=O)NCCN(C)C)CCC(=O)NCCN(CCC(=O)NCCN(C)C)CCC(=O)NCCN(C)C)CCC(=O)NCCN(CCC(=O)NCCN(CCC(=O)NCCN(C)C)CCC(=O)NCCN(C)C)CCC(=O)NCCN(CCC(=O)NCCN(C)C)CCC(=O)NCCN(C)C)nn1 | Salmonella enterica | microbial growth, broth dilution | ATCC13076 ENTERITIDIS | 18 h | 6 µg/mL
CC1(C)[C@H](NC(=O)/C(=N\OC2(C(=O)O)CC2)c2nsc(N)n2)C(=O)N1OS(=O)(=O)O | Enterobacter cloacae | agar dilution | CDC 1000654 |  | 64 µg/mL
COc1c(NC(=O)c2ccc(NC(=O)[C@H](Cc3c[nH]nn3)NC(=O)c3ccc(NC(=O)/C(C)=C/c4ccc(O)cc4)cc3)cc2)ccc(C(=O)Nc2ccc(C(=O)O)cc2)c1O | Enterococcus faecium | broth microdilution | ciprofloxacin-sensitive |  | 4 µg/mL
CC1(C)C(NC(=O)C(=NOC2(C(=O)O)CC2)c2csc(N)n2)C(=O)N1OS(=O)(=O)O (stereo not drawn) | Enterobacter cloacae | agar dilution | ATCC 43560, susceptible |  | 0.06 µg/mL
C/C(=C\c1ccc(O)cc1)C(=O)Nc1ccc(C(=O)N[C@@H](Cc2c[nH]nn2)C(=O)Nc2ccc(C(=O)Nc3ccc(C(=O)Nc4ccc(C(=O)O)c(O)c4)c(O)c3)cc2)cc1 | Enterococcus faecium | broth microdilution | ciprofloxacin-sensitive |  | 16 µg/mL
CC1C=CC=CC(C)C2C=CC3CC(C)(O)C(Cl)C(C)C3C2C(=O)C(Cl)(Cl)C(=O)C(C)C(=O)O1 (stereo not drawn) | Staphylococcus aureus |  | MRSA clinical isolate | resistant: OXA,CLI,ERY | 0.025 µg/mL
CN[C@H](CC(C)C)C(=O)N[C@H]1C(=O)N[C@@H](CC(N)=O)C(=O)N[C@H]2C(=O)N[C@H]3C(=O)N[C@H](C(=O)N[C@H](C(=O)O)c4cc(O)cc(O)c4-c4cc3ccc4O)[C@H](O)c3ccc(c(Cl)c3)Oc3cc2cc(c3O[C@@H]2O[C@H](CO)[C@@H](O)[C@H](O)[C@H]2O[C@H]2C[C@](C)(NCc3ccc(-c4ccc(Cl)cc4)cc3)[C@H](O)[C@H](C)O2)Oc2ccc(cc2Cl)[C@H]1O | Enterococcus faecium |  | VanA VRE ATCC BAA-2317 | with: LTA 100 µg/mL and Mg2+ 100 µg/mL | 5 µg/mL
Cc1c(CN(C)C(=O)/C=C/c2cnc3c(c2)CC(N)C(=O)N3)oc2ccccc12 (stereo not drawn) | Klebsiella pneumoniae | broth microdilution | AR-0139 |  | 16 µg/mL
CC1(C)[C@H](NC(=O)/C(=N\OCc2c(Cl)cccc2Cl)c2nsc(N)n2)C(=O)N1OS(=O)(=O)O | Enterobacter cloacae | agar dilution | ATCC 43560, susceptible |  | 4 µg/mL
CCOc1c(NC(=O)c2ccc(NC(=O)c3ccc(NC(=O)[C@H](Cc4c[nH]nn4)NC(=O)c4ccc(NC(=O)/C(C)=C/c5ccc(O)cc5)cc4)cc3)c(OCC)c2O)ccc(C(=O)O)c1O | Enterococcus faecium | broth microdilution | ciprofloxacin-resistant |  | 32 µg/mL
CC1(C)[C@H](NC(=O)/C(=N\OCC(=O)N2CCC[C@@H]2C(=O)O)c2nsc(N)n2)C(=O)N1OS(=O)(=O)O | Enterobacter cloacae | agar dilution | CDC 1000654 |  | > 64 µg/mL
COc1cccc(OC)c1C(=O)N[C@@H]1C(=O)N2[C@@H]1SC(C)(C)[C@@H]2C(=O)O | Staphylococcus epidermidis | microbial growth, broth dilution | 12228 |  | 4 µM
COc1c(NC(=O)c2ccc(NC(=O)c3ccc(NC(=O)[C@H](CC#N)NC(=O)c4ccc(NC(=O)/C(C)=C/c5ccc(O)cc5)cc4)cc3)c(OC)c2O)ccc(C(=O)O)c1O | Salmonella enterica | microbial growth, broth dilution |  |  | 0.5 µg/mL
CC1(C)[C@H](NC(=O)/C(=N\OCC(=O)N2CCC(C(=O)O)C2)c2nsc(N)n2)C(=O)N1OS(=O)(=O)O (stereo partly drawn) | Enterobacter cloacae | agar dilution | CDC 1000654 |  | > 64 µg/mL

For quick reference, copied from above:
SMILES | organism | test | test system | setting | MIC
COc1cc(C(=O)O)ccc1NC(=O)c1ccc(NC(=O)c2ccc(NC(=O)[C@H](Cc3c[nH]nn3)NC(=O)c3ccc(NC(=O)/C(C)=C/c4ccc(O)cc4)cc3)cc2)cc1O | Enterococcus faecium | broth microdilution | ciprofloxacin-resistant |  | 32 µg/mL
CCOc1c(NC(=O)c2ccc(NC(=O)c3ccc(NC(=O)[C@H](Cc4c[nH]nn4)NC(=O)c4ccc(NC(=O)/C(C)=C/c5ccc(O)cc5)cc4)cc3)c(OCC)c2O)ccc(C(=O)O)c1O | Enterococcus faecium | broth microdilution | ciprofloxacin-resistant |  | 32 µg/mL
C/C(=C\c1ccc(O)cc1)C(=O)Nc1ccc(C(=O)N[C@@H](Cc2c[nH]nn2)C(=O)Nc2ccc(C(=O)Nc3ccc(C(=O)Nc4ccc(C(=O)O)c(O)c4)c(O)c3)cc2)cc1 | Enterococcus faecium | broth microdilution | ciprofloxacin-sensitive |  | 16 µg/mL
